# Assay results collected from several papers.
# A part holds a random share of what one study measured.

# Set 1
# Target: Hepatocyte nuclear factor 3-beta, forkhead domain (FOXA2, Homo sapiens, UniProt Q9Y261, residues 142-269)
# Method: protein-binding microarray
# Form: hairpin DNA
# Medium: in vitro
# Tested at: not given
# Setting: whole hairpin DNA, median over replicate spots
# Reference: not given
# Reading: higher = stronger binding
# Target sequence (chain): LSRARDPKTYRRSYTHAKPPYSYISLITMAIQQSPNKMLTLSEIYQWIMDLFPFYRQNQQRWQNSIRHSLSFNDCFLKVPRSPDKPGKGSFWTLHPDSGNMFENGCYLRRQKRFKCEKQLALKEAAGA
Oligonucleotide,median fluorescence [a.u.]
GAGGCCATGTCGACAACGCCTCCTGGCGTTGTCGACATGGCCTCACACTC (5mC at 11),3220
GAGGCCATGTAAACAAGGCCTCCTGGCCTTGTTTACATGGCCTCACACTC (5mC at 28),4160
GAGGCCATGCGACCAACGCCTCCTGGCGTTGGTCGCATGGCCTCACACTC (5mC at 10),3390
GAGGCCATGTAAATAACGCCTCCTGGCGTTATTTACATGGCCTCACACTC,3760
GAGGCCCGGTAACCAACGCCTCCTGGCGTTGGTTACCGGGCCTCACACTC (5mC at 7 37),3380
GAGGCCATGTAACCAACGCCTCCTGGCGTTGGTTACATGGCCTCACACTC (5mC at 36),3050
GAGGCCATGTGACCAACGCCTCCTGGCGTTGGTCACATGGCCTCACACTC (5mC at 34),3330
GAGGCCATGCAATCAACGCCTCCTGGCGTTGATTGCATGGCCTCACACTC,3340

# Set 2
# Target: Prothrombin, mature alpha-thrombin (F2, Homo sapiens, UniProt P00734)
# Method: aptamer microarray, sandwich
# Form: DNA with 2'F-ANA
# Medium: in vitro
# Tested at: 200 nM
# Setting: whole 15-mer aptamer, many near background
# Together with: Cy3 exosite-II aptamer, 400 nM
# Reading: higher = stronger binding
# Oligonucleotide: GGTTGGTGTGGTTGG
Modification,mean fluorescence intensity
2'F-ANA at 5 7 14 15,47.7 a.u.
2'F-ANA at 2 4 6 7 8 11 13 15,179 a.u.
2'F-ANA at 1 2 5 7 8 12 14,47 a.u.
2'F-ANA at 6 8 9 10 15,151 a.u.
2'F-ANA at 1 3 4 6 8 11 13,149 a.u.
2'F-ANA at 5 8 9 12 13 14,47.6 a.u.
2'F-ANA at 2 4 5 6 7 8 10 11 12 14 15,47.8 a.u.
2'F-ANA at 1 2 3 4 9 11 12 13 15,199 a.u.

# Mixed results
Substance,tested on,assay,test system,conditions,quantity,result
"EEF1G (Homo sapiens, UniProt P26641)","DNAH17 (Homo sapiens, UniProt Q9UFH2)",cross-linking MS,cell fractions,together with: DSSO,cross-linked residues,K208 to K1558
COC(=O)CCCn1c(C(=O)c2ccccc2)c(C(C)C)c(=O)[nH]c1=O,,,"mouse, microsomes or S9","2 µM, 0.5 h",remaining compound,20.5%

# Excerpt of the above (set 2):
Modification,mean fluorescence intensity
2'F-ANA at 1 2 3 4 9 11 12 13 15,199 a.u.
2'F-ANA at 1 2 5 7 8 12 14,47 a.u.
2'F-ANA at 2 4 6 7 8 11 13 15,179 a.u.
